Measured values collected from several papers.
Protocols differ between the studies behind these lines. ± gives the spread as reported.
ESR1: Estrogen receptor (ESR1, Homo sapiens, UniProt P03372)

The chains behind the UniProt entries cited, without tags or fusion partners. Residues count along the entry.
UniProt P03372, whole entry: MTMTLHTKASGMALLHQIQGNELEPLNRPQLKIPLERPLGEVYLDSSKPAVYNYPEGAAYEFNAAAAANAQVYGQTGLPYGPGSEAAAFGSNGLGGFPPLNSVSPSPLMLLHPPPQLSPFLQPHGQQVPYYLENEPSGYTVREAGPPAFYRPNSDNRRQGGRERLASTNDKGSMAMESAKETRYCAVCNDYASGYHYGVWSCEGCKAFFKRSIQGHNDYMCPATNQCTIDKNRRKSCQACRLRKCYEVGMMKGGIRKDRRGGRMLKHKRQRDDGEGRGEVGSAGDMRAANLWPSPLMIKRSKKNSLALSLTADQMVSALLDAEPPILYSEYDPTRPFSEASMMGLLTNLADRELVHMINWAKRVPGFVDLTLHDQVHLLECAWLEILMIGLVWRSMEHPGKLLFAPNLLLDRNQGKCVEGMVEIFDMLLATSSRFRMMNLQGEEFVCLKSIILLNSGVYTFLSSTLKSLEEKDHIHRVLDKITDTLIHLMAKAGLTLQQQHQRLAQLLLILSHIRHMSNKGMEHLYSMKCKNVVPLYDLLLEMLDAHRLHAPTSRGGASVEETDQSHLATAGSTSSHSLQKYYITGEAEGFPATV
UniProt P34913, whole entry: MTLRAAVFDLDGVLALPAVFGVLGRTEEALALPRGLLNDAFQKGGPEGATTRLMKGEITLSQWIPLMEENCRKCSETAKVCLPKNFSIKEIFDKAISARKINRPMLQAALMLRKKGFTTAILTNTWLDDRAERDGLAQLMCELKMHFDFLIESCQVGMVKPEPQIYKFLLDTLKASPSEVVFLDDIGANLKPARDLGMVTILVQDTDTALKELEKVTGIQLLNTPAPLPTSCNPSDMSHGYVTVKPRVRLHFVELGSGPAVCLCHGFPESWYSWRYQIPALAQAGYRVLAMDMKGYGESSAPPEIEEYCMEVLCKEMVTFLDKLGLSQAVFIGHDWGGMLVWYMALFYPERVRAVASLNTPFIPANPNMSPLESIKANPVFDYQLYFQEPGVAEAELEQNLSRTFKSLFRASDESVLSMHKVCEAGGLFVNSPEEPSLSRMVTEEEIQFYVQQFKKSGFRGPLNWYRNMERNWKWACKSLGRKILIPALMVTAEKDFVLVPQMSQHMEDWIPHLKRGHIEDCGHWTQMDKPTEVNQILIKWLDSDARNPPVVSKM
UniProt P50750, whole entry: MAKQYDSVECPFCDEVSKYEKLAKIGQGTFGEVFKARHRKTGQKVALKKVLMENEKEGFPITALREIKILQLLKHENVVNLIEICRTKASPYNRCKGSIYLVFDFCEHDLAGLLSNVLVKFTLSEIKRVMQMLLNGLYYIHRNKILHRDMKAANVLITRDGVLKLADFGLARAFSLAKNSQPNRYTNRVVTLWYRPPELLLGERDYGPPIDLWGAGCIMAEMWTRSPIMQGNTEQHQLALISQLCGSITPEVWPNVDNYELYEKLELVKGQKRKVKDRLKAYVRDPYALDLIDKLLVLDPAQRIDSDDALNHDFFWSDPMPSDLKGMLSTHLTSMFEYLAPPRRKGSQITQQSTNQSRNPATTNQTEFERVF
UniProt P31424, 21-1203 limits assumed: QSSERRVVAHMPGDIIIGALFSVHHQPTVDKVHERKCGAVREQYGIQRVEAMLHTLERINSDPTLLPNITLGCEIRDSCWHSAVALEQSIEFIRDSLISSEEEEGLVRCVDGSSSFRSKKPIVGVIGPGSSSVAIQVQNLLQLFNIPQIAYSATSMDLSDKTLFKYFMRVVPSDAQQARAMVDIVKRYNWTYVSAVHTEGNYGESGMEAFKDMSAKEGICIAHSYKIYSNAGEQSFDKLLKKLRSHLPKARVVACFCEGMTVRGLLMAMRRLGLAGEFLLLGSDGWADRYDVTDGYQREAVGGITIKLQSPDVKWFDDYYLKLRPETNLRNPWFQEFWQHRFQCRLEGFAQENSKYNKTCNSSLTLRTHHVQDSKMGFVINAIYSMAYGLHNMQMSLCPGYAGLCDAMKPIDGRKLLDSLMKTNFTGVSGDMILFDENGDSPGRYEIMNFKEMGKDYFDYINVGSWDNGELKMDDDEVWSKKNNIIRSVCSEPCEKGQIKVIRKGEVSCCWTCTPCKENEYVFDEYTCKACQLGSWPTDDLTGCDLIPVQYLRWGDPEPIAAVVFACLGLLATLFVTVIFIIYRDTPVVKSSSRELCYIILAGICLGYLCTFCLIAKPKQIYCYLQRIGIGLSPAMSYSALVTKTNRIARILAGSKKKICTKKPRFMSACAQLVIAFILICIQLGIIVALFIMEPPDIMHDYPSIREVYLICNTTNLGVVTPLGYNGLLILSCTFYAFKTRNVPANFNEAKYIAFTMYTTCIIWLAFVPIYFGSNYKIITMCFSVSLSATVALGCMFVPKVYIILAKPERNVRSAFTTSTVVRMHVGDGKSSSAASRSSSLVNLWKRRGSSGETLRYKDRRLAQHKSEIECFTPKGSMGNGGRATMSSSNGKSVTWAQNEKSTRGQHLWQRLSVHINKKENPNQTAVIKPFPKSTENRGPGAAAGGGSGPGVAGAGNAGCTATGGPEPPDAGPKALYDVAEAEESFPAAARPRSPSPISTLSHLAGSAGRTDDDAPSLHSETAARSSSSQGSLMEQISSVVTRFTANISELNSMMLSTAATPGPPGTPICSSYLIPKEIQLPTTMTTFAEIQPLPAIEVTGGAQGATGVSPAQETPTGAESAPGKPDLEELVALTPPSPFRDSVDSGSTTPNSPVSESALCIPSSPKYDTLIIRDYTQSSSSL
UniProt P11362, 22-822 limits assumed: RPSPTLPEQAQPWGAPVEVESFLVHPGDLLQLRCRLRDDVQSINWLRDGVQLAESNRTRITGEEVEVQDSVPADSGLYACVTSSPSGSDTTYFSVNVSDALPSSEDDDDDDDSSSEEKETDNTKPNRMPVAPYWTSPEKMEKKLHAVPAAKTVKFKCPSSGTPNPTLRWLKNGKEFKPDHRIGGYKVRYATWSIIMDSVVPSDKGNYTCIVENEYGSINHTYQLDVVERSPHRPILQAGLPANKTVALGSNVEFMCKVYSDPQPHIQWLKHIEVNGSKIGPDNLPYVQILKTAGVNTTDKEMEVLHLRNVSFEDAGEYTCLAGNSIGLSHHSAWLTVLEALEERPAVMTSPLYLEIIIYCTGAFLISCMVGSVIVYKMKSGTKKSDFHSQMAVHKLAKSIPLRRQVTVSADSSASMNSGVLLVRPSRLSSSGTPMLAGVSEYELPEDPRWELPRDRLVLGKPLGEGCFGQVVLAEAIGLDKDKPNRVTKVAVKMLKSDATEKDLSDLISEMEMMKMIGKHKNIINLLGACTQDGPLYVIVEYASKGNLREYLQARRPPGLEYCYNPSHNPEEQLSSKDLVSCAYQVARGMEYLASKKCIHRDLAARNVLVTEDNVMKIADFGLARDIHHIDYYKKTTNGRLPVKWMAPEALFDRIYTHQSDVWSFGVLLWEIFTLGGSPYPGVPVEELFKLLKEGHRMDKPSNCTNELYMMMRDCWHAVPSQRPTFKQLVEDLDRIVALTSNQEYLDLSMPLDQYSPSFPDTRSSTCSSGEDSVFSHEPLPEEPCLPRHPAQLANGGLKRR
UniProt A0A381MCS3, 1-451: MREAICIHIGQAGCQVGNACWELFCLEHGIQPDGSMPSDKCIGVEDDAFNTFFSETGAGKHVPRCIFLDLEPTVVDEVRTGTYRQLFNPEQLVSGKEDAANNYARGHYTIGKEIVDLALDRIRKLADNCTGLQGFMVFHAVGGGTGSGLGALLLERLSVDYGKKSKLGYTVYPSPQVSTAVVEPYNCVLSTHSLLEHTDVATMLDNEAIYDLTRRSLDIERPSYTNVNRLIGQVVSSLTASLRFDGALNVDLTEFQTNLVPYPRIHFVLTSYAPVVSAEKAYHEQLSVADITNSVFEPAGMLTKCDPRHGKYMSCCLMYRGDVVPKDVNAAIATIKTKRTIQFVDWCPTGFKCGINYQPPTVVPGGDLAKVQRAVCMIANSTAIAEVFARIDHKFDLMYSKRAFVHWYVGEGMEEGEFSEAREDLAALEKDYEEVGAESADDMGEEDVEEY
UniProt A4HTR0, 1-443: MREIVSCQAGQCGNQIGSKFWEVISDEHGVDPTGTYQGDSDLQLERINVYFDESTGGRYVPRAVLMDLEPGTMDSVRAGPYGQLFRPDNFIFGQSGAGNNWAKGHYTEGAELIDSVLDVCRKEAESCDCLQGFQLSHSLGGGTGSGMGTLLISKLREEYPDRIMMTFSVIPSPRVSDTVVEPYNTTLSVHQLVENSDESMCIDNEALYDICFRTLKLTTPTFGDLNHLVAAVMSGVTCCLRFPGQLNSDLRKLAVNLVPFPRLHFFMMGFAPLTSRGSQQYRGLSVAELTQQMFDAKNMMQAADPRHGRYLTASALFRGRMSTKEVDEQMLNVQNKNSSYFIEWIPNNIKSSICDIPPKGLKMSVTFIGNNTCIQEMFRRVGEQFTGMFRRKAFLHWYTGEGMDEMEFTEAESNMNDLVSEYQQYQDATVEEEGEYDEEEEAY
UniProt P31421, 19-872 limits assumed: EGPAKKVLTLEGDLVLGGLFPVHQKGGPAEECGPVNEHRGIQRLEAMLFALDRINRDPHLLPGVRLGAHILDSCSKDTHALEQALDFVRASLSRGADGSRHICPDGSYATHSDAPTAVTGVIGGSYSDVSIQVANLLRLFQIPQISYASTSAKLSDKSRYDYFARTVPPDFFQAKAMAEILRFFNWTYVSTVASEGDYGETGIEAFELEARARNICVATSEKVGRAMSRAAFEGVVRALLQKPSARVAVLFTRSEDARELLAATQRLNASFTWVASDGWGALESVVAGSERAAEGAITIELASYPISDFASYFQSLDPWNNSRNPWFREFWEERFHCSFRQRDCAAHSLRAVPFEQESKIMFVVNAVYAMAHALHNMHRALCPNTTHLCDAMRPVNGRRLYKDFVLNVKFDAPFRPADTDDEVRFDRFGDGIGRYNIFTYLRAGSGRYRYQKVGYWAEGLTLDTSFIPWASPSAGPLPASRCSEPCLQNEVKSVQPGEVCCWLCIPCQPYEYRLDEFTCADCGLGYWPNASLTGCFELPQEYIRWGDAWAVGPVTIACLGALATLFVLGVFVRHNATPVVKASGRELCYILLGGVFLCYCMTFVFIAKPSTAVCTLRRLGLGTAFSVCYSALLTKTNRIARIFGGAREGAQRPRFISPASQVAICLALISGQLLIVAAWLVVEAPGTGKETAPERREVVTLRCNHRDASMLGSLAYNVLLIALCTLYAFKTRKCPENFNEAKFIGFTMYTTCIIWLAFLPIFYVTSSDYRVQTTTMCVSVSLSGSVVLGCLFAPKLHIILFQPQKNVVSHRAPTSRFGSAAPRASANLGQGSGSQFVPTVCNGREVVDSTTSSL
UniProt P14902, whole entry: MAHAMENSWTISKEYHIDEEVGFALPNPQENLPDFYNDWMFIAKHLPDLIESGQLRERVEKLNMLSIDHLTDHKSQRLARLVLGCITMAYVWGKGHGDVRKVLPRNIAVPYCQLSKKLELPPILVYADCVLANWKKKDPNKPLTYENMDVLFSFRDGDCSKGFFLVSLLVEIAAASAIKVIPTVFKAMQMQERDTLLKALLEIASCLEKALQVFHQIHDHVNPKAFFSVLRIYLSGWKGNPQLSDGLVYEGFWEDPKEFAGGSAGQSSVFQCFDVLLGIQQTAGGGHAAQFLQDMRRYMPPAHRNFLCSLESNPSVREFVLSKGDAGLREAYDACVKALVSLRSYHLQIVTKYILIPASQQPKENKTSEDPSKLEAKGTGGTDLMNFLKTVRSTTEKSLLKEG
UniProt Q99436, whole entry, looked up: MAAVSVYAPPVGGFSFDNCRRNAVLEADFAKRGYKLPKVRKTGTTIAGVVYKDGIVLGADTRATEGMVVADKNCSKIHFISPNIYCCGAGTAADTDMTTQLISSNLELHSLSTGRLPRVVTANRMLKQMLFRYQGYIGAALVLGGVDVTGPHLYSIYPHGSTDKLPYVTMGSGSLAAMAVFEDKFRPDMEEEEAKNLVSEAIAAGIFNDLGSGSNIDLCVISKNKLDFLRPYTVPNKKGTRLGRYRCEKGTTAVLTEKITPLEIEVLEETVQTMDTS
UniProt Q8N6T7, whole entry: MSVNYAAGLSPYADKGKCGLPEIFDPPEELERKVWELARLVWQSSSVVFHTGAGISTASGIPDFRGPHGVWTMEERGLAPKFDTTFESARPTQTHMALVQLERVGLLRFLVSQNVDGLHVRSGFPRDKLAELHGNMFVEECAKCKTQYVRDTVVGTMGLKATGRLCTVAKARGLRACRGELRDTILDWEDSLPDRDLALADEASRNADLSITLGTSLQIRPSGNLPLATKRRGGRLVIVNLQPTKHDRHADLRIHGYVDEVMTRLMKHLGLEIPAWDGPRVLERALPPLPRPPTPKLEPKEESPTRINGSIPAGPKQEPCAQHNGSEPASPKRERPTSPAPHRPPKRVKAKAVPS
UniProt O75365, whole entry: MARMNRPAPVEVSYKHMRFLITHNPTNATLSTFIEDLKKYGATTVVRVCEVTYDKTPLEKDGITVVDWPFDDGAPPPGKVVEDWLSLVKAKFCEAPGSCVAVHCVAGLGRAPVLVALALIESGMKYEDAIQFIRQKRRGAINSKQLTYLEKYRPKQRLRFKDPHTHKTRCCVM

COc1ccc(C(=O)Nc2ccc(-c3nc4ccccc4s3)cc2)cc1  IC50 (Tyrosine-protein kinase SYK, with FCER1G (SYK, Homo sapiens, UniProt P43405); protein binding, inhibitor, TR-FRET): > 100 µM
[2H]c1c([2H])c(S(=O)(=O)N2CCC(C)(C(=O)Nc3ccc4cc(C(=O)O)ccc4c3)CC2)c(C([2H])([2H])[2H])c([2H])c1C([2H])([2H])[2H]  IC50 (EPHX2 (Homo sapiens, UniProt P34913); pH 7.0, 30 °C, added: CMNPC substrate 5 µM): 3.5 µM
Clc1ccc(C2(c3ccc(-c4ccnc5ccccc45)cc3)CCNCC2)cc1  IC50 (LATS2 (Homo sapiens, UniProt Q9NRM7); kinase activity, inhibitor, radiometric HotSpot; added: ATP 10 µM): 0.42 µM
C=Cc1cccc(-c2cc(=O)c3c(O)cc(O)c([C@H]4CCN(C)C[C@H]4O)c3o2)c1  IC50 (Cyclin-dependent kinase 9, with cyclin T1 (CDK9, Homo sapiens, UniProt P50750); inhibitor; with cyclin T1, GST-CTD substrate): 0.0099 µM
COc1cc(Cl)ccc1-c1nc(Nc2nc3ccccc3o2)ncc1C#N  IC50 (Grm5 (Rattus norvegicus, UniProt P31424); calcium mobilization, negative allosteric modulator; added: glutamate EC80): 0.148 ± 0.042 µM
Cc1ccc2oc(-c3c4c(N)n[nH]c(=O)c4nn3-c3ccc(C(C)C)cc3)c(C)c2c1  IC50 (FGFR1 (Homo sapiens, UniProt P11362); kinase activity, inhibitor, ELISA): 0.0248 ± 0.0011 µM
COc1cc([C@@H]2c3cc4c(cc3[C@H](C=C(C)C)[C@H]3COC(=O)[C@H]23)OCO4)cc(OC)c1OC  IC50 (Tubulin alpha/beta heterodimer (Leishmania infantum, UniProt A0A381MCS3+A4HTR0); tubulin polymerization, inhibitor; 37 °C, added: tubulin 1.2 mg/mL): 3.4 ± 0.3 µM
O=C(OC(C(F)(F)F)C(F)(F)F)N1Cc2ccc(OCC(F)F)cc2C1  IC50 (ABHD6 (Homo sapiens, UniProt Q9BV23); inhibitor, fluorescence): 0.006 ± 0.0003 µM
CCOc1cc(C(=O)N2CCC(N3CCN(C)CC3)CC2)ccc1Nc1ncc2c(n1)N(C(C)C)c1ccccc1C(=O)N2C  IC50 (MAPK7 (Homo sapiens, UniProt Q13164); kinase activity): 0.069 ± 0.007 µM
Cc1ccc(OCc2ccc3c(c2)c(=O)c(C(N)=O)cn3-c2ccc(F)cc2)cn1  IC50 (Grm2 (Rattus norvegicus, UniProt P31421); calcium mobilization, negative allosteric modulator): 0.247 µM
C[C@H](NC(=O)c1cc(C(=O)O)cc([C@H]2CCN[C@@H]2C(=O)O)c1)C(=O)O  IC50 (Glutamate receptor ionotropic, NMDA 2C, with GluN1 (Rattus norvegicus, UniProt Q00961); ion current, antagonist, two-electrode voltage clamp; Xenopus oocytes; GluN1/GluN2C, added: glycine 100 µM and glutamate 1 µM): 11.6 ± 0.62 µM
O=C(C[n+]1cccc(C(=O)Nc2ccc(Cl)cc2)c1)NCc1ccccc1  IC50 (ALK (Homo sapiens, UniProt Q9UM73); ELISA): 35 µM
O=[N+]([O-])c1ccc(/C=C/c2c[nH]c3ccc(F)cc23)c(F)c1  IC50 (IDO1 (Homo sapiens, UniProt P14902); enzyme activity, inhibitor): > 100 µM
CC(C)NC(=O)CSc1nc2ccc(NC(=O)CSc3ccc(C(C)(C)C)cc3)cc2s1  IC50 (ESR1; reporter gene, antagonist; HEC-1 transfected ERα luciferase reporter): > 50 µM
O=C(Cn1c(-c2nccs2)nc2ccccc21)Nc1ccc2ccccc2c1  IC50 (IMPDH2 (Homo sapiens, UniProt P12268); enzyme activity, inhibitor; lower bound): ≥ 40 µM
O=C(CCCCCn1c(=S)[nH]c2ccccc2c1=O)N1CCN(c2cccc(C(F)(F)F)c2)CC1  IC50 (ESR1; reporter gene, coactivator binding inhibitor, luciferase reporter; HEC-1 cells transfected with ERα; partial inhibition, added: estradiol 1 nM): 25 µM
CN1CCC[C@@H]1C(=O)N[C@@H](Cc1ccccc1)B(O)O  IC50 (Proteasome subunit beta type-3/PSMB7, trypsin-like site (Homo sapiens, UniProt P49720+Q99436); β2c enzyme activity, inhibitor; added: Ac-KQL-AMC): > 10 µM
NC(=O)c1ccc(C(=O)NOCc2ccccc2F)cc1  IC50 (SIRT6 (Homo sapiens, UniProt Q8N6T7); deacetylase activity, inhibitor, fluorogenic; added: RHKK-ac-AMC): 14.8 ± 1.33 µM
O=c1[nH]c(=S)[nH]c2sc(-c3ccccc3)cc12  IC50 (PTP4A3 (Homo sapiens, UniProt O75365); phosphatase activity; 30 min, pH 7.0, 25 °C, added: DiFMUP 12 µM): > 100 µM

Excerpt of the above:
O=C(CCCCCn1c(=S)[nH]c2ccccc2c1=O)N1CCN(c2cccc(C(F)(F)F)c2)CC1  IC50 (ESR1; reporter gene, coactivator binding inhibitor, luciferase reporter; HEC-1 cells transfected with ERα; partial inhibition, added: estradiol 1 nM): 25 µM
COc1ccc(C(=O)Nc2ccc(-c3nc4ccccc4s3)cc2)cc1  IC50 (Tyrosine-protein kinase SYK, with FCER1G (SYK, Homo sapiens, UniProt P43405); protein binding, inhibitor, TR-FRET): > 100 µM
